Results collected from several papers.
Compare with care: the assays were run in different laboratories. ± marks the error that the study gave.
Organism: Plasmodium falciparum

COc1ccc(-c2ccc(C)cc2)c2c1C(C)=N[C@H](C)C2 has an IC50 of 3900 nM (parasite growth, SYBR Green; NF54; blood stage).
Cc1ccc(S(=O)(=O)n2cc3c4c2C(=O)C(N)=CC4=NCC3)cc1 gave an IC50 of 3410 nM (parasite growth, SYBR Green; W2; blood stage).
The IC50 of CC1=C(Cn2cc(CN3CCC(F)(F)CC3)nn2)C(=O)c2ccccc2C1=O is reported as 2840 nM (parasite growth, [3H]hypoxanthine incorporation; NF54; 72 h).
The IC50 of COc1cccc2c(-c3ccc(O)c4c3CC(C)(C)N=C4)ccc(OC(C)C)c12 is reported as 464.6 ± 4.5 nM (asexual parasite proliferation, SYBR Green I fluorescence; clinical isolate SB_05, Mozambique).
CCNCC#CCNc1ccnc2cc(Cl)ccc12 gave an IC50 of 24 nM (parasite growth, LDH; 3D7).
The IC50 of O=c1oc2cc(O)ccc2cc1-n1cc(COc2ccccc2)nn1 is reported as 5250 nM (parasite growth; 3D7; 72 h, blood stage).
O=C(CCCCCONC(=O)c1nc(-c2ccc(N3CCCC3)cc2)cs1)NO has an IC50 of 80 nM (asexual blood-stage growth, [3H]hypoxanthine uptake; 3D7; 72 h).
For Cc1cc(N2CC[C@@](C#N)(C3CC3)C2=O)cc(NC(=O)Cc2ccccc2)n1, the IC50 was 64 nM (parasite growth; conditional knockdown control line; 120 h, together with: 50 nM anhydrotetracycline).
O=C1C(=O)c2[nH]cc3c2C(=C1Cl)NCC3 has an IC50 of 7230 nM (parasite growth, SYBR Green; W2; blood stage).
With O[C@@H](CNCCNC(c1ccccc1)c1ccccc1)c1cc(Cl)cc2c1-c1ccc(Cl)cc1C2 the IC50 was 10.9 ± 1.1 nM (3D7; 48 h).
For COc1cccc2c(-c3ccc(O)c4c3CCN=C4)ccc(OC(C)C)c12, the IC50 was 409 ± 13 nM (asexual parasite proliferation, SYBR Green I fluorescence; HB3).
Cc1cc(N2CCC(CO)(C3CC3)C2=O)cc(C(=O)NCc2cc(F)cc(-c3cnn(C)c3)c2)n1 (stereo not shown) gave an IC50 of 242 nM (parasite growth; conditional knockdown control line; 72 h, together with: 50 nM anhydrotetracycline).
With CCOC(=O)c1ccc2c(c1)C1CC(C)(N2)c2c(C)nc3ccc(C(=O)OCC)cc3c21 (single isomer, unassigned) the IC50 was 17000 nM (parasite growth, inhibitor, SYBR Green I; 3D7).
The IC50 of COc1cncc(-c2cc(F)cc(CNC(=O)c3cc(N4CC[C@@](C#N)(C5CC5)C4=O)cc(C)n3)c2)c1 is reported as 250 nM (parasite growth; conditional knockdown control line; 120 h, together with: 50 nM anhydrotetracycline).
Cc1ccc(S(=O)(=O)n2cc3c4c2C(=O)C(NCCc2ccc(O)cc2)=CC4=NCC3)cc1 has an IC50 of 814 nM (parasite growth, SYBR Green; DD2; blood stage).
The IC50 of CC1=N[C@H](C)Cc2c(-c3ccc4ccccc4c3)ccc(O)c21 is reported as 343 ± 54 nM (asexual parasite proliferation, SYBR Green I fluorescence; 7G8).
For Cc1nc(CN(C)c2ncnc3c2cnn3CCO)cs1, the IC50 was > 6000 nM (parasite growth; NF54; blood stage).
O=C1C(NCCc2ccc(O)cc2)=CC2=NCCc3c(Br)[nH]c1c32 gave an IC50 of 6360 nM (parasite growth, SYBR Green; W2; blood stage).
For C[C@@H]1C(=O)O[C@@H](C)/C=C/C=C\[C@@H](C)[C@@H]2C=C[C@@H]3C[C@]4(C)O[C@@H]4[C@@H](C)[C@H]3[C@@H]2C(=O)C(Cl)(Cl)C1=O, the IC50 was 62 nM (parasite growth, ELISA; 3D7; blood stage).
The IC50 of COc1cc(C)c(-c2ccc(O)c3c2C[C@@H](C)N[C@@H]3C)c2cccc(O)c12 (single isomer, unassigned) is reported as 355 ± 75 nM (asexual parasite proliferation, SYBR Green I fluorescence; K1).
The IC50 of COc1ccc2c(c1)C1CC(C)(N2)c2c(C)nc3ccc(OC)cc3c21 (stereo not shown) is reported as 2420 nM (parasite growth, SYBR Green; blood stage).
With COCCN(C)C(C)C(=O)NC(Cc1ccc(-c2ccccc2)cc1)B(O)O (stereo not shown) the IC50 was 454 ± 109 nM (parasite growth; Dd2-B2 wild type; 72 h).
The IC50 of COc1cc2c(c(OC)c1)C(C)=[N+](c1ccc(OC)c3c(OC)cc(C)cc13)[C@@H](C)C2 is reported as 626 ± 41 nM (asexual parasite proliferation, SYBR Green I fluorescence; K1).
N#Cc1ccc(-c2csc(C(=O)NOCCCCCC(=O)NO)n2)cc1 gave an IC50 of 250 nM (asexual blood-stage growth, [3H]hypoxanthine uptake; 3D7; 72 h).
With O=C1C(NCCc2cc(Br)c(O)c(Br)c2)=CC2=NCCc3c[nH]c1c32 the IC50 was 2560 nM (parasite growth, SYBR Green; W2; blood stage).
The IC50 of COc1cccc2c(-c3ccc(O)c4c3CCNC4)ccc(O)c12 is reported as 359 ± 81 nM (asexual parasite proliferation, SYBR Green I fluorescence; K1).
Cc1ccc2c(c1)C1CC(C)(N2)c2c(C)nc3ccc(C)cc3c21 (stereo not shown) gave an IC50 of 258 nM (parasite growth, inhibitor, SYBR Green I; 3D7).
The IC50 of COc1c(Br)cc(CCNC2=CC3=NCCc4c[nH]c(c43)C2=O)cc1Br is reported as 997 nM (parasite growth, SYBR Green; W2; blood stage).
CC(F)(F)CCCNC[C@@H](O)c1cc(Cl)cc2c1-c1ccc(Cl)cc1C2 gave an IC50 of < 5 nM (3D7; 48 h).
COCCN(C)CC(=O)NC(Cc1ccc(-c2ccccc2)cc1)B(O)O (stereo not shown) has an IC50 of 141 ± 102 nM ([3H]-hypoxanthine incorporation; K1, chloroquine-resistant).
CCN(CC)CCCC(C)Nc1ccnc2cc(Cl)ccc12 (stereo not shown) has an IC50 of 11.6 ± 1.97 nM (parasite growth; NF54, artemisinin-sensitive; 72 h).
O=C1C(=O)c2[nH]cc3c2C(=C1I)NCC3 gave an IC50 of 15700 nM (parasite growth, SYBR Green; W2; blood stage).
For COc1cc(O)c(-c2cc(-c3cc(-c4c(O)cc5c(c4OC)[C@H](C)N[C@H](C)C5)c4cc(C)cc(OC)c4c3O)c(O)c3c(OC)cc(C)cc23)c2c1[C@H](C)N[C@H](C)C2, the IC50 was 69.1 ± 2 nM (asexual parasite growth, SYBR Green I; clinical isolate SB_04, Malawi).
The IC50 of O=C(CCCCCONC(=O)c1nc(-c2ccc(Cl)s2)cs1)NO is reported as 340 nM (asexual blood-stage growth, [3H]hypoxanthine uptake; 3D7; 72 h).

Some of these lines once more:
The IC50 of COc1cc(C)c(-c2ccc(O)c3c2C[C@@H](C)N[C@@H]3C)c2cccc(O)c12 (single isomer, unassigned) is reported as 355 ± 75 nM (asexual parasite proliferation, SYBR Green I fluorescence; K1).
The IC50 of COc1ccc2c(c1)C1CC(C)(N2)c2c(C)nc3ccc(OC)cc3c21 (stereo not shown) is reported as 2420 nM (parasite growth, SYBR Green; blood stage).
With COCCN(C)C(C)C(=O)NC(Cc1ccc(-c2ccccc2)cc1)B(O)O (stereo not shown) the IC50 was 454 ± 109 nM (parasite growth; Dd2-B2 wild type; 72 h).
The IC50 of COc1cc2c(c(OC)c1)C(C)=[N+](c1ccc(OC)c3c(OC)cc(C)cc13)[C@@H](C)C2 is reported as 626 ± 41 nM (asexual parasite proliferation, SYBR Green I fluorescence; K1).
